Measured values from different studies.
Each numbered part is a random draw from the data of one study; scales do not carry over between parts.
Sequence of UniProt Q96J92 (whole entry, looked up): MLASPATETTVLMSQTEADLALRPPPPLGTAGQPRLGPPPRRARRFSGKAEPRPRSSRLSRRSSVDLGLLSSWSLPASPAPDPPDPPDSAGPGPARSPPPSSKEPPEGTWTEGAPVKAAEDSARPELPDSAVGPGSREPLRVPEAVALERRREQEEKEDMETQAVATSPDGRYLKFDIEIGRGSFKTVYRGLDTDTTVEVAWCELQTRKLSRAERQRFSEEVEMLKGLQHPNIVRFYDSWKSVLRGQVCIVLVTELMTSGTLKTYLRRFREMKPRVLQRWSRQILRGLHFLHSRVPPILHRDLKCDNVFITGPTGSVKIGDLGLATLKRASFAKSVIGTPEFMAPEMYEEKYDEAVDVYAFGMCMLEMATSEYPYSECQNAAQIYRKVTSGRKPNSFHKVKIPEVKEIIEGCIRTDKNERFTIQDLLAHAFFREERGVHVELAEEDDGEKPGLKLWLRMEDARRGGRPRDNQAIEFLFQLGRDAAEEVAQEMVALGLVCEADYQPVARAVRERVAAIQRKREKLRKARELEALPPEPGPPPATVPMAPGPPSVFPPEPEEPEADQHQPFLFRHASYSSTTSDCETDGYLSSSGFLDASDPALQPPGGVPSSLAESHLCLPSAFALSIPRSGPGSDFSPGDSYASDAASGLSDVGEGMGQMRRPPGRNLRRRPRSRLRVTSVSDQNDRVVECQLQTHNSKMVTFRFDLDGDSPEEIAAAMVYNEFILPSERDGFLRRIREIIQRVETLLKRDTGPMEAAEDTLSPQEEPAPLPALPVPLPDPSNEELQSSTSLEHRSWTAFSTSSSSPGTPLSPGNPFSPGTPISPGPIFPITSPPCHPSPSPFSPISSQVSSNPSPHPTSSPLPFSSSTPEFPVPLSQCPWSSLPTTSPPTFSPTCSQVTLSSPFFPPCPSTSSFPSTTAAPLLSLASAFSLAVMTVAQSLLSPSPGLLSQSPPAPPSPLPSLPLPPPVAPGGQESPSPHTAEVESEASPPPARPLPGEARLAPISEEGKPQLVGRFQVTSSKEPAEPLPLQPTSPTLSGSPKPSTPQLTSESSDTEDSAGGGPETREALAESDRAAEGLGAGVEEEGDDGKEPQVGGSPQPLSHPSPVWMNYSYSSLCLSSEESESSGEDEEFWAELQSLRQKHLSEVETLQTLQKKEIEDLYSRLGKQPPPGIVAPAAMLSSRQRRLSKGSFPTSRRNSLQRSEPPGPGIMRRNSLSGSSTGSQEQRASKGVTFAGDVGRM

Study 1 — read-out: cell-free assay; technique: competition with immobilised ligand; concentration: 1 µM
SMILES: CN(C)C(=O)Cn1cc(-c2nc([C@@](C)(c3ccc(-c4cnc(N)nc4)cc3)C3CC3)no2)cn1
target	remaining binding [%]
WNK4 (Homo sapiens, UniProt Q96J92)	93
FLT3 (Homo sapiens, UniProt P36888, D835Y)	85
FLT3 (Homo sapiens, UniProt P36888, ITD)	100

Study 2 — technique: protein-binding microarray; form: hairpin DNA; medium: in vitro; concentration: not given; reference: not given; direction: higher = stronger binding
Target: Homeobox protein Hox-B13, full length (HOXB13, Homo sapiens, UniProt Q92826, residues 1-284)
Sequence of UniProt Q92826 (whole entry, looked up): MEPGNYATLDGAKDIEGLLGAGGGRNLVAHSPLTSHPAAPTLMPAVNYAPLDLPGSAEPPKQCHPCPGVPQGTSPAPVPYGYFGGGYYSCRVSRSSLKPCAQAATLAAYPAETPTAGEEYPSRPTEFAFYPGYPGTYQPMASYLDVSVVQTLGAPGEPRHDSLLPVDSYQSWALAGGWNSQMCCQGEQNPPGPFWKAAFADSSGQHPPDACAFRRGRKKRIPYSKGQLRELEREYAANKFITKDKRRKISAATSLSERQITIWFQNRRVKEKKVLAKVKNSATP
Setting: whole hairpin DNA, median over replicate spots
Strand	median fluorescence [a.u.]
GAGGCCGTTTTACGAGCGCCTCCTGGCGCTCGTAAAACGGCCTCACACTC	5500
GAGGCCCTTTTATTGGGGCCTCCTGGCCCCAATAAAAGGGCCTCACACTC	4460
GAGGCCGTTTTAGGAGGGCCTCCTGGCCCTCCTAAAACGGCCTCACACTC (5mC at 32)	4090
GAGGCCGTTTTAGTGGGGCCTCCTGGCCCCACTAAAACGGCCTCACACTC	4310
GAGGCCGTTTTATTCGGGCCTCCTGGCCCGAATAAAACGGCCTCACACTC (5mC at 15 29)	3880
GAGGCCGTTTTACGCGGGCCTCCTGGCCCGCGTAAAACGGCCTCACACTC (5mC at 15 29)	4230
GAGGCCGGTTTATTGGGGCCTCCTGGCCCCAATAAACCGGCCTCACACTC (5mC at 37)	5050
GAGGCCGATTTACGAGGGCCTCCTGGCCCTCGTAAATCGGCCTCACACTC	5140

Study 3 — technique: protein-binding microarray; form: double-stranded DNA, one strand shown; medium: in vitro; concentration: 2540 nM top; setting: 60-bp whole probe; added: salmon DNA 0.4 mg/ml; reference: random background probes; direction: higher = stronger binding; shared flanks, not repeated: GCCTAGCAC … GTCTTGATTCGCTTGACGCTGCTG
Target: Interferon regulatory factor 3, full length, phosphomimetic (IRF3, Homo sapiens, UniProt Q14653, residues 1-427, S386D/S396D/S398D/S402D/T404D/S405D)
Residues (chain): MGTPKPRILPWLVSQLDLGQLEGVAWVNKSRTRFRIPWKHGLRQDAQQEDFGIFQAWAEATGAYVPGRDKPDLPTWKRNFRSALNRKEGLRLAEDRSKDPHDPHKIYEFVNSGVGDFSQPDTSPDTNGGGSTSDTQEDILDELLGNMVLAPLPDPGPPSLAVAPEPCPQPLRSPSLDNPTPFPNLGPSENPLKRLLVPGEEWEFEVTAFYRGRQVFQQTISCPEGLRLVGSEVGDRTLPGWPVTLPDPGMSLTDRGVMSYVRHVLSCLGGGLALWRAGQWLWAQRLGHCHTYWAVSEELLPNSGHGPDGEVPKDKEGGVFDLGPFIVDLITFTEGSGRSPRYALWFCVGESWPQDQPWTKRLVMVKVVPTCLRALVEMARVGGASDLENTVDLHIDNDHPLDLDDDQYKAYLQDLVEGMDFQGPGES
Strand	fitted relative affinity [z-score]
TGTTTTAATTTTCTCTTTGGGTGCTAG	3.05
GACGGACTGGACTTCCGGGACGTGCTA	-0.486
TCAGTCTTCAGGTTCTCACTGTGCTAG	0.444
TTTACTCTCTACATGGGTATGTGCTAG	0.67
GGCGGACTGGGGACTGGGGACGTGCTA	-1.19
GACGGACTGGGTTACGGGACGTGCTAG	-0.597
TCCCCTCTAGGTTCTCTGAAAGTGCTA	0.252
GACGGTTTCGGTTTCTGGACGTGCTAG	9.56

Single results of other studies
Structure (SMILES)	medium	quantity	result
CCOC(=O)[C@@H]1CSCC(=O)N[C@@H](CC)C(=O)N(C)[C@@H](C)C(=O)N[C@@H](CC(C)C)C(=O)N2CCC[C@H]2C(=O)N(CC)CC(=O)N[C@@H](CC(C)C)C(=O)N(C)[C@@H](C)C(=O)N[C@@H](CC(C)C)C(=O)N1C	hydrocarbon/water	logD	0.843

Some of these lines once more (study 2):
Strand	median fluorescence [a.u.]
GAGGCCGTTTTACGAGCGCCTCCTGGCGCTCGTAAAACGGCCTCACACTC	5500
GAGGCCCTTTTATTGGGGCCTCCTGGCCCCAATAAAAGGGCCTCACACTC	4460
GAGGCCGTTTTAGGAGGGCCTCCTGGCCCTCCTAAAACGGCCTCACACTC (5mC at 32)	4090
